# Assay results collected from several papers.
# Protocols differ between the studies behind these lines. “And” joins repeats or separate records; there may be more than shown. Numbers after ± are the reported error.
Compound,target or system,assay,system,setting,scale,endpoint,value
COc1cc(/C=C/C(=O)Oc2cc(C(F)(F)F)ccc2C(F)(F)F)ccc1O,HaCaT,"cell growth or viability, MTT",,24 h,,CC50,21.3 µM
CC(=O)NCC(=O)N[C@@H](CCCNC(=N)N)C(=O)N[C@@H](CCCCN)C(=O)N[C@@H](CCCCN)C(=O)N[C@@H](CCCNC(=N)N)C(=O)N[C@@H](CCCNC(=N)N)C(=O)N[C@@H](CCC(N)=O)C(=O)N[C@@H](CCCNC(=N)N)C(=O)N[C@@H](CCCNC(=N)N)C(=O)N[C@@H](CCCNC(=N)N)C(=O)N1CCC[C@H]1C(=O)N[C@@H](CCC(N)=O)C(N)=O,HEK-293T,subcellular fractionation LC-MS,nuclear fraction,"20 µM, 24 h",,concentration,8.2 nM and 12.6 nM and 11 nM
COc1cc(/C=C/C(=O)Oc2cc(C(F)(F)F)ccc2C(F)(F)F)ccc1OC(C)=O,HaCaT,"cell growth or viability, MTT",,24 h,,CC50,66.7 µM
O=C1NC2(CC2)COc2ncc(F)cc2[C@H]2COCCN2c2ccn3ncc1c3n2,,,"Sprague-Dawley rat, female, ovaries","oral, 5 mg/kg/day, 4 weeks dosing, end of recovery",,organ-to-brain weight ratio,5.35 ± 0.58%
CC[C@H](C)[C@H](NC(=O)CN)C(=O)N[C@@H](Cc1c[nH]c2ccccc12)C(=O)N[C@@H](CCCCN)C(=O)N1CCC[C@H]1C(=O)N[C@H](C(=O)N[C@@H](Cc1ccccc1)C(=O)N[C@H](C(=O)N[C@@H](Cc1ccc(O)cc1)C(=O)N[C@@H](CC(C)C)C(=O)N[C@@H](C)C(=O)N[C@H](C(=O)N1CCC[C@H]1C(=O)N[C@H](C(=O)N[C@@H](Cc1c[nH]cn1)C(=O)N[C@@H](Cc1ccccc1)C(=O)N[C@@H](CCCCN)C(=O)N[C@@H](Cc1ccccc1)C(=O)O)[C@@H](C)CC)[C@@H](C)O)[C@@H](C)O)[C@@H](C)CC,HUVEC,"cytotoxicity, MTT",,"24 h, 37 °C",,IC50,39.5 µM
CNC(=O)C[C@H](Cc1ccc(F)cc1)NC(=O)[C@@H](Cc1ccc(Cl)cc1Cl)NC(=O)[C@H](N)Cc1ccccc1[N+](=O)[O-],Huh-7-ACE2,CellTiter-Glo,,"0.391 µM, 48 h, unit not given",reference: DMSO,viability,0.999 and 1.01
CC(=O)c1c(O)c(C)c(O)c2c1OC1=CC(=O)C(=C(C)NCCCCOC3OC4OC5(C)CCC6C(C)CCC(C3C)C46OO5)C(=O)C12C (mixture of isomers),L6 rat skeletal myoblasts,"cytotoxicity, Alamar Blue",,,,IC50,0.015 µM
NC(=O)N/N=C/c1ccc(OCc2ccccc2)cc1,IMR-32,MTT,,"500 µg/mL, 24 h",reference: untreated control,viability,9.47%
Oc1ccc([C@@H]2Oc3ccc(/C=C/c4cc(O)cc(O)c4)cc3[C@H]2c2cc(O)cc(O)c2)cc1,dog cells,,,1 (unit not given),,CC50,363 µM
CCN(CCCCOc1ccc(CCC(=O)N2CCC(Cc3ccccc3)CC2)cc1OC)Cc1ccccc1,Caco-2 monolayer,,,"20 µM, 120 min",,Papp(B-A),12.8 ± 1.82 ×10⁻⁶ cm/s
CC[C@H](C)[C@H](NC(=O)[C@H](C)NC(=O)[C@H](CCCCN)NC(=O)[C@H](CC(C)C)NC(=O)[C@@H](N)Cc1ccccc1)C(=O)N[C@@H](CCCCN)C(=O)N[C@@H](CCCCN)C(=O)N[C@@H](Cc1ccccc1)C(=O)NCC(=O)N[C@@H](CCCCN)C(=O)N[C@@H](CCC(=O)O)C(=O)N[C@@H](Cc1ccccc1)C(=O)N[C@@H](CCCCN)C(=O)N[C@@H](CCCCN)C(=O)N[C@H](C(=O)NCC(=O)N[C@@H](C)C(=O)N[C@@H](CCCCN)C(=O)N[C@@H](CC(C)C)C(=O)N[C@@H](CCCCN)C(=O)O)[C@@H](C)CC,HeLa,"cell growth or viability, MTT",,8 µg/mL,,viability,94.7%
O=C(CCOCC(COCCC(=O)NC(Cc1c(-c2cc(C(=O)O)cc(C(=O)O)c2)[nH]c2c(-c3cc(C(=O)O)cc(C(=O)O)c3)cccc12)C(=O)O)(COCCC(=O)NC(Cc1c(-c2cc(C(=O)O)cc(C(=O)O)c2)[nH]c2c(-c3cc(C(=O)O)cc(C(=O)O)c3)cccc12)C(=O)O)COCCC(=O)NC(Cc1c(-c2cc(C(=O)O)cc(C(=O)O)c2)[nH]c2c(-c3cc(C(=O)O)cc(C(=O)O)c3)cccc12)C(=O)O)NC(Cc1c(-c2cc(C(=O)O)cc(C(=O)O)c2)[nH]c2c(-c3cc(C(=O)O)cc(C(=O)O)c3)cccc12)C(=O)O (stereo not drawn),Vero E6-TMPRSS2,,,24 (unit not given),,CC50,> 50 µM
O[Si](CCCN1CCCCC1)(c1ccc(F)cc1)C1CCCCC1 (stereo not drawn),BaF3,"cell growth or viability, ATP luminescence",,72 h,,IC50,9.77 µM
CN(C)CCCNC(=O)[C@@H]1NC(=O)[C@@H]2Cc3ccc(cc3)Oc3cc4cc(c3O)-c3ccc5c(c[nH]c5c3)C[C@@H](NC(=O)C(NC(=O)CCCCCN)c3ccc(O)cc3)C(=O)N[C@H](c3ccc(O)cc3)C(=O)N[C@H]4C(=O)N[C@@H](C(=O)N2C)c2ccc(cc2)Oc2cc1ccc2O (stereo partly drawn),human red blood cells,,,"64 µg/mL, 1 h, 37 °C, 1% DMSO",,hemolysis,0%
CC[C@H](C)[C@@H]1NC(=O)[C@@H](CCCNC(=N)N)NC(=O)[C@@H](NC(=O)[C@@H](CC(C)C)NC(=O)[C@H](C)NC(=O)[C@H](C)NC(=O)[C@@H]2CCCN2C(=O)[C@@H](CC(C)C)NC(=O)[C@@H](NC(=O)[C@@H](CCCNC(=N)N)NC(=O)[C@@H](CC(C)C)NC(=O)[C@@H](CC(C)C)NC(=O)[C@@H](NC(=O)[C@@H](CCCNC(=N)N)NC(=O)[C@@H](CC(C)C)NC(=O)[C@@H](NC(=O)[C@@H](NC(=O)CNC(=O)[C@@H](CC(C)C)NC(=O)[C@@H](N)Cc2ccccc2)[C@@H](C)O)C(C)C)C(C)C)C(C)C)CSSC[C@@H](C(=O)O)NC(=O)[C@@H](CCCNC(=N)N)NC(=O)[C@@H](CCCNC(=N)N)NC(=O)[C@H](Cc2ccccc2)NC1=O,HaCaT,"cytotoxicity, MTT",,20 h,,IC50,40 µM
CCOc1ccc(CN2CC[C@H]2C(=O)NC)cc1-c1cccc(C(=O)NC[C@@H]2COC(C)(C)O2)c1,Huh-7-ACE2,CellTiter-Glo,,"0.0244 µM, 48 h, unit not given",reference: DMSO,viability,1.06 and 1.13 and 1
CC(C)C[C@H](NC(=O)[C@@H](NC(=O)[C@H](CCCCN)NC(=O)[C@H](CCCCN)NC(=O)[C@H](CC(C)C)NC(=O)[C@H](Cc1c[nH]c2ccccc12)NC(=O)[C@H](CCCCN)NC(=O)[C@H](Cc1c[nH]c2ccccc12)NC(=O)[C@H](CC(C)C)NC(=O)[C@H](CCCCN)NC(=O)[C@H](CCCCN)NC(=O)[C@@H](N)C(C)C)C(C)C)C(N)=O,sheep red blood cells,10% haemolysis,,"1 h, 37 °C",,minimum haemolytic concentration,89 µM
CC[C@H](C)[C@H](NC(=O)[C@@H](NC(=O)[C@H](C)NC(=O)[C@H](C)NC(=O)[C@H](CCC(N)=O)NC(=O)CNC(=O)[C@@H](NC(=O)[C@@H](NC(=O)[C@H](C)NC(=O)[C@@H](NC(=O)[C@H](C)NC(=O)[C@@H]1CCCN1C(=O)CNC(=O)[C@H](C)NC(=O)[C@H](CCCCN)NC(=O)[C@@H](NC(=O)[C@@H](NC(=O)CNC(=O)[C@H](CC(=O)O)NC(=O)[C@H](CCCNC(=N)N)NC(=O)[C@@H](NC(=O)[C@H](CC(N)=O)NC(=O)[C@H](CCC(N)=O)NC(=O)CNC(=O)[C@@H](NC(=O)[C@H](CCCCN)NC(=O)[C@H](CCC(=O)O)NC(=O)[C@@H](NC(=O)[C@H](CCCCN)NC(=O)[C@H](CCCCN)NC(=O)[C@H](Cc1ccccc1)NC(=O)[C@@H](NC(=O)[C@H](CCCCN)NC(=O)[C@H](Cc1c[nH]c2ccccc12)NC(=O)[C@@H](N)CCCNC(=N)N)[C@@H](C)CC)[C@@H](C)CC)C(C)C)[C@@H](C)CC)[C@@H](C)CC)C(C)C)C(C)C)C(C)C)C(C)C)[C@@H](C)O)C(N)=O,MCF7,CCK-8,,"8 µM, 24 h, 1% FBS",,cytotoxicity,not toxic
CC[C@H](C)[C@H](NC(=O)[C@H](C)NC(=O)[C@H](CCCCN)NC(=O)[C@H](CCCCN)NC(=O)[C@@H](N)CCCNC(=N)N)C(=O)N[C@@H](CCCCN)C(=O)N[C@@H](CC(C)C)C(=O)N[C@H](C(=O)N[C@@H](CCCCN)C(=O)N[C@@H](CCCCN)C(=O)N[C@@H](CC(C)C)C(=O)N[C@H](C(=O)N[C@@H](CCCCN)C(=O)N[C@@H](CCCCN)C(=O)N[C@@H](CC(C)C)C(=O)N[C@@H](CCCCN)C(=O)N[C@@H](CCCCN)C(=O)N[C@@H](C)C(=O)N[C@@H](CC(C)C)C(=O)N[C@@H](CCCCN)C(=O)O)C(C)C)C(C)C,HaCaT,"cell growth or viability, MTT",,32 µg/mL,,viability,83.9%
CC(C)(C)C(=O)OCOP(=O)(OCOC(=O)C(C)(C)C)C1CCCN(O)C1=O (stereo not drawn),NCI-H226,,,,,CC50,> 100 µM
CNC(=O)CC[C@H](Cc1ccccc1)NC(=O)[C@@H](Cc1ccc(Cl)cc1Cl)NC(=O)[C@H](N)Cc1ccccc1[N+](=O)[O-],Huh-7-ACE2,CellTiter-Glo,,"0.781 µM, 48 h, unit not given",reference: DMSO,viability,0.989 and 0.912 and 0.939
O=c1ccn([C@@H]2O[C@H](CO)[C@@H](O)[C@H](O)[C@H]2I)c(=O)[nH]1,Vero,MTT,DMEM with 10% FBS,72 h,,CC50,> 25 µM
CNC(=O)C[C@H](Cc1ccncc1)NC(=O)[C@@H](Cc1cccc(Br)c1)NC(=O)[C@@H](N)Cc1ccsc1,Huh-7-ACE2,CellTiter-Glo,,"0.000763 µM, 48 h, unit not given",reference: DMSO,viability,0.931 and 0.909 and 0.961
CC(C)[C@H](NC(=O)[C@H](Cc1ccc(O)cc1)NC(=O)[C@H](CS)NC(=O)[C@@H](NC(=O)[C@H](CCCNC(=N)N)NC(=O)[C@H](Cc1ccccc1)NC(=O)[C@H](CS)NC(=O)[C@H](Cc1c[nH]c2ccccc12)NC(=O)[C@@H](N)CCCNC(=N)N)C(C)C)C(=O)NCC(=O)N[C@@H](Cc1ccccc1)C(=O)N[C@@H](CS)C(=O)N[C@@H](Cc1ccc(O)cc1)C(=O)N[C@@H](Cc1c[nH]c2ccccc12)C(=O)N[C@@H](CCCCN)C(=O)N[C@@H](CS)C(=O)N[C@@H](CCCNC(=N)N)C(=O)O,rat erythrocytes,haemolysis,,"1 h, 37 °C, 2% erythrocytes in PBS",,HC50,3.23 log10 µg/mL

# Excerpt of the above:
Compound,target or system,assay,system,setting,scale,endpoint,value
CC(=O)c1c(O)c(C)c(O)c2c1OC1=CC(=O)C(=C(C)NCCCCOC3OC4OC5(C)CCC6C(C)CCC(C3C)C46OO5)C(=O)C12C (mixture of isomers),L6 rat skeletal myoblasts,"cytotoxicity, Alamar Blue",,,,IC50,0.015 µM
NC(=O)N/N=C/c1ccc(OCc2ccccc2)cc1,IMR-32,MTT,,"500 µg/mL, 24 h",reference: untreated control,viability,9.47%
